Published values gathered from unrelated publications.
Each numbered part is a random draw from the data of one study; scales do not carry over between parts.

Sample 1 — technique: aptamer microarray, sandwich; molecule type: DNA with 2'F-ANA; medium: in vitro; tested at: 200 nM; added: Cy3 exosite-II aptamer, 400 nM; reading: higher = stronger binding; oligonucleotide: GGTTGGTGTGGTTGG
Target: Prothrombin, mature alpha-thrombin (F2, Homo sapiens, UniProt P00734)
Notes: whole 15-mer aptamer, many near background
| Modification | mean fluorescence intensity |
| --- | --- |
| 2'F-ANA at 1 4 8 9 11 13 14 15 | 50.5 a.u. |
| 2'F-ANA at 6 7 12 15 | 750 a.u. |
| 2'F-ANA at 2 6 8 9 11 13 14 | 109 a.u. |
| 2'F-ANA at 3 5 8 10 14 | 48.6 a.u. |
| 2'F-ANA at 3 4 5 7 12 13 15 | 126 a.u. |
| 2'F-ANA at 1 2 4 6 8 10 13 15 | 52.8 a.u. |
| 2'F-ANA at 2 5 9 10 11 14 | 47.3 a.u. |
| 2'F-ANA at 4 5 13 14 | 43.4 a.u. |
| 2'F-ANA at 1 2 3 4 6 8 10 11 12 14 15 | 93.9 a.u. |
| 2'F-ANA at 1 3 6 7 8 13 15 | 224 a.u. |
| 2'F-ANA at 6 11 14 | 185 a.u. |
| 2'F-ANA at 1 6 8 10 14 | 47.5 a.u. |
| 2'F-ANA at 5 6 8 9 | 86.8 a.u. |
| 2'F-ANA at 2 3 6 8 10 12 15 | 394 a.u. |
| 2'F-ANA at 1 2 5 7 11 12 13 15 | 63.2 a.u. |
| 2'F-ANA at 1 2 4 5 6 7 9 11 12 | 86.3 a.u. |
| 2'F-ANA at 3 6 7 8 10 12 13 15 | 516 a.u. |
| 2'F-ANA at 2 4 5 6 7 13 14 15 | 58.9 a.u. |
| 2'F-ANA at 1 2 4 5 6 10 14 15 | 46.6 a.u. |
| 2'F-ANA at 2 3 4 6 7 11 12 13 | 429 a.u. |
| 2'F-ANA at 1 2 4 5 6 7 8 9 14 | 48.4 a.u. |
| 2'F-ANA at 3 5 9 10 15 | 66.6 a.u. |
| 2'F-ANA at 1 2 4 7 10 11 13 14 | 55.2 a.u. |
| 2'F-ANA at 2 6 9 10 14 | 88.1 a.u. |
| 2'F-ANA at 1 4 7 8 10 11 13 14 15 | 47.3 a.u. |

Sample 2 — technique: protein-binding microarray; molecule type: double-stranded DNA, one strand shown; medium: in vitro; tested at: 250 nM; notes: 60-bp whole probe; added: salmon DNA 0.4 mg/ml; relative to: random background probes; reading: higher = stronger binding; all sequences stand within: GCCTAGCAC … GTCTTGATTCGCTTGACGCTGCTG
Target: Interferon regulatory factor 5, full length, phosphomimetic (IRF5, Homo sapiens, UniProt Q13568-2, residues 1-514, K96S/S451D/S453D/S456D/S462D)
| Oligonucleotide | log fluorescence [z-score] |
| --- | --- |
| AACGGTCTCCTTCTCCTGACGTGCTAG | -0.112 |
| TTAGGACTGGGGCCTGGGTTAGTGCTA | -0.343 |
| GACGGTATCGGTTTAGGGACGTGCTAG | 6.86 |
| CTGACTTTGGAGATGACTCAGTGCTAG | -0.22 |
| GACGGACTGGTTTTCGGGACGTGCTAG | 1.06 |
| GACGGACTGGACAATCGGGACGTGCTA | -0.428 |
| TCAGTTTTCTCCATGGAACTGTGCTAG | 1.2 |
| GTGTTTTTCTCCTATTTAAGAGTGCTA | 1.99 |
| GACGGACTGGGGGATCGGGACGTGCTA | 0.0457 |
| GACGGTATCCTTTTCTTGACGTGCTAG | 0.463 |
| GGGCTTTCCCAGCCTGGGGCTGTGCTA | -0.541 |
| TCATATATACTATATGCAACTGTGCTA | 0.543 |
| GACGGTATCGGCCTCGGGACGTGCTAG | 1.83 |
| GACGATATCACACTGGAGACGTGCTAG | 0.551 |
| TAGTTGCAAGCCATGGGTGGGTGCTAG | -0.605 |
| GACGGTCTCCTTCGCCTGACGTGCTAG | -0.0647 |
| TCATTTCTCTGCTACCCTACTGTGCTA | 1.03 |
| CACTCTGTCCCTCTGTGACAGTGCTAG | -0.048 |
| TTAGGACTGGGGAATCGGTTAGTGCTA | -0.0518 |
| TTAGGACTTGGACTGGGTTAGTGCTAG | -0.375 |
| TCATAACTCATTTTCATACTGTGCTAG | 1.6 |
| GATGAACTGGGGACTGGAGACGTGCTA | -0.605 |
| ACTGAAATCACCCTTGGAAGTGTGCTA | 0.808 |
| TCATTTTTATCAATCATACTGTGCTAG | 1.47 |
| GGTAGGCGGGGCCCCTGGCCGTGCTAG | -1.06 |

Sample 3 — technique: protein binding microarray; molecule type: double-stranded DNA, one strand shown; medium: in vitro; tested at: not given; relative to: not given; reading: higher = stronger binding
Target: Histone acetyltransferase KAT6A, winged helix 1, GST fusion (KAT6A, Homo sapiens, UniProt Q92794, residues 1-85)
Notes: 8-mer, flanks averaged, mean of 2 arrays, mostly near background
Residues (chain): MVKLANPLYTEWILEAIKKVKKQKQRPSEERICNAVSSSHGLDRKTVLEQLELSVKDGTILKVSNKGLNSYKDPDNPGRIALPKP
| Oligonucleotide | E-score |
| --- | --- |
| CCCGGGAG | 0.282 |
| CATAGCGA | 0.00098 |
| ATAATGCG | 0.13 |
| CTTTCTCC | -0.0824 |
| TGCTAGAA | -0.0215 |
| TAATCCAA | -0.199 |
| CAACATTC | -0.0756 |
| AGAGACAC | -0.107 |
| CGTGTCGA | 0.00772 |
| ATAGTTGC | -0.111 |
| CGCATCGC | 0.268 |
| CCTGCGGA | 0.00339 |
| CGATGAGC | 0.132 |
| CGTATACG | 0.281 |
| CATGGCTC | 0.0676 |
| CGAGCTGC | 0.0585 |
| ACGTGTTA | -0.0212 |
| GTGAATTA | 0.0243 |
| TACCAGCA | -0.106 |
| CGTTACCC | 0.146 |
| AGTCGCAG | -0.0184 |
| ACGACCAA | -0.251 |
| CTATTGAA | -0.0339 |
| AGAGGGCG | 0.259 |
| TCTGAGCA | -0.247 |

Sample 4 — technique: RNA Bind-n-Seq; molecule type: RNA; medium: in vitro; tested at: 365 nM; relative to: no-protein control; reading: higher = stronger binding
Target: RNA binding protein fox-1 homolog 2, RRM domain, GST-SBP tag (RBFOX2, Homo sapiens, UniProt O43251-10, residues 100-194)
Notes: natural RNA segment, single round, ends assumed
All sequences stand within: GGGAGUUCUACAGUCCGACGAUC … UGGAAUUCUCGGGUGCCAA
Target sequence (chain): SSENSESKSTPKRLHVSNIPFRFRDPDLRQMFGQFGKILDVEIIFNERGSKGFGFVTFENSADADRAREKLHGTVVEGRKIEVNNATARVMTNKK
| Oligonucleotide | RBNS enrichment (R) |
| --- | --- |
| UGUGUUAAAAUGUUCCUGUAAAAGAAACAUUGGUAAAUUUAAAUACAUACUGUUCUAAUUUUGUAUUUUUUAAUUUUUGAAUUUGACAUUGAGUUUAAUUCAGCAACAAC | 0.786 |
| AAGAGGCUUUGGGAAUAGUUCAUAGGGAAGGGACAACAUGGAAGAAACAGCGAUUUAAAUUGUAUUGAACAGGGCAUAUAAAAUGCAUUCUGUACCCUGAUCUGGCAUAU | 1.65 |
| AAAAGGUGAGGUGGCAACCUGAUUUCUAAUGGCUUAAAAUGUUGAUGAUGAUCCUAAUUACAUAAACACACACAUAUAUCUAGUGAUUUCUAAGGAUUUGUUUACUUUUU | 0.684 |
| AAAGGAGGAAAGGGGUGGAAAAAAACCGACUUUCUGCAUUUAACUACAAAAAAAGUUUAUGUUUAGUUUGGUAGAGGUGUUAUGUAUAAUGCUUUGUUAAAGAACCCCCU | 0.303 |
| GGAUGUGAGAAAUGUAAAUUUUAUAACAGCAGUAUUUAUCCUGGUUUAAUUCUAAUACGAUGUCAUGUUAAUUUCAUGUUGUGAUUAAUAAAAGCAUUUUUUCUUCACUC | 0.434 |
| UGACUCAUGUCCCAGGUCUAAGAAAUCUAAAGUGGACUGAGGCAGGCUCCCUUGUGUGUCCCUAUACCCUCCAGCCCUCCUUUAGGGUUCUUUUGGGGGUAAGGGGCUAA | 0.296 |
| UCAGGCUUUAGGAACUGAAGAGGGUUUCUGAAGAUCUAUCCAGCACUCCGAUGGCCAGCAACAACACCGCCAGCAUAGCACAAGCCAGGAAGCUGGUAGAGCAGCUUAAG | 0.39 |
| UGUUCCCUCUUUCCUUCAAGUGCCUGUUGCAUAUUGAAAGGAAGGAGAAAUCCCAAAGCAGAUUCCUUUGAUCGGGUUUCUGUUGGAGAUGGGGCUUCCCUUAGGAGCCA | 0.253 |
| GUACUUAUUUAUGUAGUCACUGUGUUUCUGGAAUUUUAUGUUAAUAAAAUUUUAAUUUAAAAAGGCUUGUCUGAGAACAUAUGAUUGACACUCUGGUCAAGACGGUCGUU | 0.795 |
| CCAUCACCAGUGGAGUUUUUUUAUUUGUUAUUUUUUUAAAAGUUUAGGUGCCUUUGCGGAUGACCUCAUUUUGACGUUGAAAAAAUGAUUUUUUAAUAUGUGAACACUGC | 0.464 |
| UGAUGUUGACUAAGGGUUAUAGACAGACGCUCUUGACAGAGGUCACAGAUCGGAAUAUGAAGUUCUUUAUGGUUCCAUAGCCUAGGUGUUUCUUGGGGGCAUUUGGGAGG | 2.64 |
| ACUUUAGCCUAUAUUACCAGUGAAAUGUAGGCACUGUCUUCACGUGCUGUCCUGACCACAGAGUCUCCAGAACUGAGGACAUAAUUGCUCCUGUAUUUCUGUGUUCCUCG | 0.306 |

Excerpt of the above (sample 1):
| Modification | mean fluorescence intensity |
| --- | --- |
| 2'F-ANA at 2 4 5 6 7 13 14 15 | 58.9 a.u. |
| 2'F-ANA at 2 3 4 6 7 11 12 13 | 429 a.u. |
| 2'F-ANA at 1 6 8 10 14 | 47.5 a.u. |
| 2'F-ANA at 1 4 8 9 11 13 14 15 | 50.5 a.u. |
| 2'F-ANA at 6 11 14 | 185 a.u. |
| 2'F-ANA at 4 5 13 14 | 43.4 a.u. |
| 2'F-ANA at 3 6 7 8 10 12 13 15 | 516 a.u. |
| 2'F-ANA at 2 3 6 8 10 12 15 | 394 a.u. |
| 2'F-ANA at 2 5 9 10 11 14 | 47.3 a.u. |
| 2'F-ANA at 3 4 5 7 12 13 15 | 126 a.u. |
| 2'F-ANA at 1 2 4 5 6 7 9 11 12 | 86.3 a.u. |
